Measured values collected from several papers.
Each numbered part is a random draw from the data of one study; scales do not carry over between parts.

Study 1 — technique: RNA Bind-n-Seq; form: RNA; matrix: in vitro; concentration: 365 nM; baseline: no-protein control; reading: higher = stronger binding; endpoint: RBNS enrichment (R)
Target: RNA binding protein fox-1 homolog 2, RRM domain, GST-SBP tag (RBFOX2, Homo sapiens, UniProt O43251-10, residues 100-194)
Setting: natural RNA segment, single round, ends assumed
Constant ends, left off below: GGGAGUUCUACAGUCCGACGAUC … UGGAAUUCUCGGGUGCCAA
Residues (chain): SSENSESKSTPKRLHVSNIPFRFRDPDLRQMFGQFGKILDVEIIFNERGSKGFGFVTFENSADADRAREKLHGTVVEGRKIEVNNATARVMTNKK
UGCAGCCCCUGGAAAAGAAGAGACAGCCAUAGACGAGGAGCCAGAGUGGGGGCAGACUGGCCAUUUUUAUUUUGAAGUUCCUGCGAGAAAUGGAUGGUGGAAGGGUGGCG: 1.11
UAAGGCCUAAGAUGCUCACAGAGGUCCCUCAUGACCUCCCUUCCCCAACUCCCGAAUCCUCUCUUGAGUGUGGACCUCAACACCUUGAGCCCUAGUAAAGGAACUAUGCA: 5.91
ACACUUAUAAGUUCUUUUCAGCUUCUACAAUAAAGAAAAGUUCAGAAAUGCUUUCAGUUACCAAAGUUAUAACGAUAUAUUUAGGAAAAGCUACAAAUAACACUUACUUU: 0.751
UGCAGAUCCCAGGCUGUGGAUUACGUCACUGCAGGAACUGCUUCUGAAAGGCUUUGGCCUUCCUCAGUGAGCCCUGGAGGGGUUGGCCUUCUCUCCUCCCUGCCUAGAUC: 0.289
UCUUAAAAACGUUUUGGAAAGCACUUCAGAUUUUACUGUUUACCAUGAGCCAUGGGUUUUUGUUUUUUCUAAAUUGUCGGGUUGUGUGGGUUUUGGUUACUCGUUUUUGU: 0.993
ACUCUUUGCCAGCAGCCACAACAUGCAUUGACAGCGGCACAGUGAGAUAUAACUGAUGGGCUUUGAACCUGGUUGGCCGGGGAAGCUGUAGGGGUGGAUAGAGCUGGCUU: 1.41
GGCCAGCAGCUCCCAGUGUGACCUGACAAAAACACGUAGGGGCAGGGACGGUCCCCACCCCCAGGGACACAACCCCUGGUCUUGGACCAGUAGAGGACACGGAGGGUUCA: 0.172
ACCCAUCUUCAGCUGAGGUUGUUAUGGGGGGCUGGAAUCACGUGUUUUUUAAACCUGAUAUUUUCAUUCCUAAUUGAGUGACAGCCAUCUUUUAAGGUGUUGGGCAUGGA: 0.446
CCACACUCAUCUGACACACGUACACUUAGACCUGUCUCUUCUUUUGCUUUUCAAUUUUGGAAAGGGAUCUCUGUCCAGGUCAGCCCCUCUUGAAGGGCUACCUUUUGUUU: 0.406
AUGAGUGCCAAUGUGUCAUUUAGUAAAACUUAAAUAGAAACAAGGUCCUUCAAAUGUUCCUUUGGCCAAAAGCUGAAGGGAGUUACUGAGAAAAUAGUUAACAAUUACUG: 0.237
GAGCCCCCUCAGAAAACUGCCUCACCUGAGACAAGUGCCUGCUGGACAGAGGUGUGAUUCCAGGCCUGGUGUCACAUGACACCAGCAUGCAUUGCAGGAUUAUUAGUGUA: 0.512
CCGGUGACCGCGAGGAGUCGGUGAGGUGGGACUGGUGACUCUCAGAAGCUCCUCGGUGCACUUUUGUCUCGGCAGAGCUGGGAGGGAGCAGGCGCUCGCGGAAGCACGUC: 0.809

Study 2 — technique: RNA Bind-n-Seq; form: RNA; matrix: in vitro; concentration: 1 µM; setting: whole 134-nt RNA, ends assumed; together with: 150 mM KCl; baseline: input library; reading: higher = stronger binding; endpoint: log2 enrichment
Target: Ras GTPase-activating protein-binding protein 1, RRM domain (G3BP1, Homo sapiens, UniProt Q13283)
Chain of UniProt Q13283 (whole entry, looked up): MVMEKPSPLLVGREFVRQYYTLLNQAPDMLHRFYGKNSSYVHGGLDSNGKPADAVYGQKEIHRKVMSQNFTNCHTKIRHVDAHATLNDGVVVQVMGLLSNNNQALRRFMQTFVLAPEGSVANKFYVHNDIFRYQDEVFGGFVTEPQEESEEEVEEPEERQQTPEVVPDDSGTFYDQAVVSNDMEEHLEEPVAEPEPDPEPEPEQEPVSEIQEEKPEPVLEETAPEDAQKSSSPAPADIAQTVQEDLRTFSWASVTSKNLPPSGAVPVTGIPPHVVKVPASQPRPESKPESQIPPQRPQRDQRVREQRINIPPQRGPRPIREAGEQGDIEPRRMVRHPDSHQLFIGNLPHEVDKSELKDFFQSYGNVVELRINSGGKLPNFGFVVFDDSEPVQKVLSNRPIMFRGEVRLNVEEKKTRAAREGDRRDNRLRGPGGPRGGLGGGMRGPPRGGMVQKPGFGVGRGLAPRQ
Constant ends, left off below: GGGAGUUCUACAGUCCGACGAUC … UGGAAUUCUCGGGUGUCAAGG
GUCCUGUGCUACACAUCGUAUGUACCGAAUCGGGGAGGGGUUUUUUUGGGGUUUGGGGAAAGUAUUAUGUUACGCCGUUCGGAUCUGCAC: 0.921
CACAGACAACACGCACCCACACAGACACAAAGGGAAGGGGUUGGGAUGGGGACAGGGUGCACAGCAGGGCGGGGUAGGACCCCAGCCCCU: -0.149
UAAAUUCAUCUGAAAAUGGUGAGGACAGGCACAAACGCAAAGAAAGAAAGUCAUCAAGAGGCAGAAGUCACUCAAGAUCUAGGUCUCGUG: -0.288
CACAGACAACACGCACCCAAAAAGACACAGAGGGAAGGGGUUGGGAUGGGGACAGGGUGCACAGCAGGGCGGGGUAGGACCCCAGCCCCU: -0.171
GUCCUGUGCUACACAUCGUAUGUACCGAAUCGGGAAAAAGGGAAAAAAAGGGUUUGGGAAAGUAUUAUGUUACGCCGUUCGGAUCUGCAC: 0.102
UGGCCCUGGUGGCAUGCGGGGAGGAAGAGGUGGCCUCAUGGAUCGUGGUGGUCCCGGUGGAAUGUUCAGAGUUGGCCGUGGUGGAGACAG: 1.83
UGGCCCUGGUGGCAUGCGGGGAGGAAGAGGUGGCCUCAUGGAUCGUGGUGGUCCCGGUGGAAUGUUCGGAGGUGGCCGUGGUGGAGACAG: 1.76
CUCAGACAACACGCACCCACACAGACACAGAGGGAAGGGGUUGGGAUGGGGACAGGGUGCACAGCAGGGCGGGGUAGGACCCCAGCCCCU: -0.123
UUUGGUUAUGAACAGGAUUCGGAUUCACGUCUUGCCAACCAAUCGGGGGAGGAUCACUCCAGUGCCCAGGUCUCAGGAACCUCUGUCUUG: -0.0402
CUCAAGUCCUGUGCUACACAUCGUAUGUACCGAAUCGGGGCCGGCCGGGCCGGAAAGUAUUAUGUUACGCCGUUCGGAUCUGCACUUCCA: -0.383
UCCCAAUGCUCGGAGGAAGCCCAAGGGCAGCCCUCGUGUACCUGAUGCCAAGAAGCCUAAACCCAAGAAAGUAGCUCCCCUGAAAAUCAA: -0.0519
CCUGUGCUACACAUCGUAUGUACCGAAUCGGCCCCCCGGGCCCCCCGGGGCCCCCCGGGGAAAGUAUUAUGUUACGCCGUUCGGAUCUGC: -0.633
UCCUGUGCUACACAUCGUAUGUACCGAAUCAAACCCCCAAACCCCCCCAAACCCCCAAAAAAGUAUUAUGUUACGCCGUUCGGAUCUGCA: -0.119
UGGGAGGUGGAUUUUGUUUAUUUUUUUAGCUCAUUUCCAGGGGUGGGCAUUUUUUUUUAAUAUGUGUCAUGAAUAAAGUUGUUUUUGAAA: 1.54

Study 3 — technique: universal PBM; form: double-stranded DNA, one strand shown; matrix: in vitro; concentration: not given; reading: higher = stronger binding; endpoint: E-score
Target: Sal-like protein 4, full length isoform B (SALL4, Homo sapiens, UniProt Q9UJQ4-2, residues 1-616)
Setting: 8-mer, flanks averaged, mean of replicates
Residues (chain): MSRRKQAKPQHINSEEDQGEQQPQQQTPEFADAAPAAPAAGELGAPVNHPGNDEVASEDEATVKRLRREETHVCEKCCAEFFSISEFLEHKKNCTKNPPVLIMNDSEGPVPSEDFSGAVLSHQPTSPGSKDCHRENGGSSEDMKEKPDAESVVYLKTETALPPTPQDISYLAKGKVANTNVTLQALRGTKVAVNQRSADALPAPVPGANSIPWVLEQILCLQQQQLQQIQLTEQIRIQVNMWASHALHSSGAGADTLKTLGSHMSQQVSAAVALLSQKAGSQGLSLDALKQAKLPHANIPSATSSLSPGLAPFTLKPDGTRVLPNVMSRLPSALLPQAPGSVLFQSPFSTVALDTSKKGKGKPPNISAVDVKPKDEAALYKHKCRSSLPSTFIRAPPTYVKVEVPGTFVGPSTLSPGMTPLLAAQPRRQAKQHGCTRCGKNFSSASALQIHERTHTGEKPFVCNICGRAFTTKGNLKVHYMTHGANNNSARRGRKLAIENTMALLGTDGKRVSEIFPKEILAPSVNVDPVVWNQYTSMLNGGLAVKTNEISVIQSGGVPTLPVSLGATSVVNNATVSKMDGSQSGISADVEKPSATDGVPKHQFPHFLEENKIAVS
CCCGAGAG: -0.152
AGTACTTG: 0.166
CTATGTCA: 0.217
AAATGCCA: 0.0618
CAGCTCTA: -0.121
CTCCCCAG: -0.106
CGTTCGAA: 0.0587
AAGAACCC: -0.276
ATATTTTG: 0.395
CGGAGCTC: -0.251
ATGTTCTG: 0.0333
CCGTACAC: -0.129
ACGAGATG: -0.102
ACTCATTA: 0.219
GAACAGAC: -0.0859
CGTTCACA: 0.0544
ACGACCGA: -0.0902
ATCAATAG: 0.309
AGCAAAAC: 0.0842
AGCGGTTG: -0.23
AGCATGGC: -0.182
CCGTACCG: -0.308
GGCCGCCC: -0.406
CTAAGAAC: -0.199
CTCCTTAC: 0.0661

Study 4 — technique: protein binding microarray; form: double-stranded DNA, one strand shown; matrix: in vitro; concentration: not given; baseline: not given; reading: higher = stronger binding; endpoint: E-score
Target: Histone acetyltransferase KAT6A, both winged helices, GST fusion (KAT6A, Homo sapiens, UniProt Q92794, residues 1-181)
Setting: 8-mer, flanks averaged, mean of 2 arrays, mostly near background
Construct (chain): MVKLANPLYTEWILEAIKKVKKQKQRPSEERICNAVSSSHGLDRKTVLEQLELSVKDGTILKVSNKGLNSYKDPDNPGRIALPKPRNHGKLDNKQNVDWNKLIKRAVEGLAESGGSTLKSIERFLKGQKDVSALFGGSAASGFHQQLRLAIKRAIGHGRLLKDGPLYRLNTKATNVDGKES
ACCGGCCC: 0.161
GGCTAAAC: 0.0887
GAAGCCAA: -0.173
GCGTTTGA: 0.0954
AGCCAAAG: -0.112
AATCCCAA: -0.122
AGGAACAA: -0.0961
AGCCTGCC: -0.0551
CCTTTATC: -0.0593
ACGTCCCC: -0.0147
CTACGCCA: 0.0275
CCTACCCG: 0.132
CATATGAA: -0.112
GACCAGCC: -0.175
AGTGACTG: -0.0449
AGAAGTGG: -0.222
GCAAATAC: -0.069
GAAAACAA: -0.177
GCGCGGCC: 0.378
ACTTAGTG: -0.328
AAAAGACT: -0.0109
CCTGAATC: -0.111
CCGATCAA: 0.0934
CCATGAAC: -0.103
AAGCAGAC: -0.125

Study 5 — technique: protein-binding microarray; form: double-stranded DNA, one strand shown; matrix: in vitro; concentration: 2200 nM top; setting: 60-bp whole probe; together with: salmon DNA 0.4 mg/ml; baseline: random background probes; reading: higher = stronger binding; endpoint: fitted relative affinity; constant ends, left off below: GCCTAGCAC … GTCTTGATTCGCTTGACGCTGCTG
Target: Interferon regulatory factor 7, full length, phosphomimetic (IRF7, Homo sapiens, UniProt Q92985, residues 1-503, S471D/S472D/S475D/S476D/S477D/S483D/S484D/S487D)
Chain of UniProt Q92985 (whole entry, unmodified, looked up): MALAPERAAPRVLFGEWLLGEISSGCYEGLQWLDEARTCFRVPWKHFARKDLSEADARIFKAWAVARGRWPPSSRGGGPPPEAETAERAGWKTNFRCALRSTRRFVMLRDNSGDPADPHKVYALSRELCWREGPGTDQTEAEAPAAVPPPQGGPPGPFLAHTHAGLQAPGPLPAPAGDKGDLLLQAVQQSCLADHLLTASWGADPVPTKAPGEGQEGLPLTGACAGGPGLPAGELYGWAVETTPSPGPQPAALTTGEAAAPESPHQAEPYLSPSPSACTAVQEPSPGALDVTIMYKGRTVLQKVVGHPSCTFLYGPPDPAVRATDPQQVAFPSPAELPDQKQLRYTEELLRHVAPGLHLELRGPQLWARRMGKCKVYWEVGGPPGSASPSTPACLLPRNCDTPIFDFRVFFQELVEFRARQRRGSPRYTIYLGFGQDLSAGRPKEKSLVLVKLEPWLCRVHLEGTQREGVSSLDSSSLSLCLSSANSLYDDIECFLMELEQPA
GGCGGACTGGGGTATCGGGACGTGCTA: -1.52 z-score
TCAATTATATATTTATGACTGTGCTAG: 0.211 z-score
TTAGGATTGGGGTTTCGGTTAGTGCTA: 3.44 z-score
GTAGGACTGGGGTTTCGGTTAGTGCTA: 2.22 z-score
GACGGACTGCTACTGCTGACGTGCTAG: 0.0135 z-score
TCAGAACTGGGGACTGGATTAGTGCTA: -0.579 z-score
GACGGTTTCGGTATCGGGTCGTGCTAG: 8.86 z-score
TTAGGACTTGGGACTGGGTTAGTGCTA: -0.926 z-score
GACGGTAGCGGTTTCGGGACGTGCTAG: 2.11 z-score
GACGGTATCGGGTTTCGGGTCGTGCTA: 3.42 z-score
TTCATTCCTGATCTCTGGTCGTGCTAG: 1.8 z-score
ATGTTTGTCACTCTCAGAATGTGCTAG: 1.64 z-score
TTAGGACTGGCGACTGGGTTAGTGCTA: -1.11 z-score
GTACATCTCTCTTAAATAGGGTGCTAG: 0.808 z-score
GACGGTATCGGACTGGGGATGTGCTAG: -0.535 z-score
CATCGTAAGCAAAAATGATTGTGCTAG: -0.275 z-score
GAGGGACTGGACACTGGGGACGTGCTA: -1.04 z-score
GACCGTTTCGACACTGGGGACGTGCTA: 2.18 z-score
GAGGATTTCAGTTTCGAGACGTGCTAG: 4.94 z-score
TTAGGGCTCCTACTGCTTTAGTGCTAG: 0.0309 z-score
GACGATCTCCTTATCCTGACGTGCTAG: 1.36 z-score
CTAGAACTGGGGACTGGATTAGTGCTA: -0.5 z-score

Repeated from above (study 1):
ACACUUAUAAGUUCUUUUCAGCUUCUACAAUAAAGAAAAGUUCAGAAAUGCUUUCAGUUACCAAAGUUAUAACGAUAUAUUUAGGAAAAGCUACAAAUAACACUUACUUU: 0.751
UGCAGAUCCCAGGCUGUGGAUUACGUCACUGCAGGAACUGCUUCUGAAAGGCUUUGGCCUUCCUCAGUGAGCCCUGGAGGGGUUGGCCUUCUCUCCUCCCUGCCUAGAUC: 0.289
UCUUAAAAACGUUUUGGAAAGCACUUCAGAUUUUACUGUUUACCAUGAGCCAUGGGUUUUUGUUUUUUCUAAAUUGUCGGGUUGUGUGGGUUUUGGUUACUCGUUUUUGU: 0.993
ACUCUUUGCCAGCAGCCACAACAUGCAUUGACAGCGGCACAGUGAGAUAUAACUGAUGGGCUUUGAACCUGGUUGGCCGGGGAAGCUGUAGGGGUGGAUAGAGCUGGCUU: 1.41
GGCCAGCAGCUCCCAGUGUGACCUGACAAAAACACGUAGGGGCAGGGACGGUCCCCACCCCCAGGGACACAACCCCUGGUCUUGGACCAGUAGAGGACACGGAGGGUUCA: 0.172
ACCCAUCUUCAGCUGAGGUUGUUAUGGGGGGCUGGAAUCACGUGUUUUUUAAACCUGAUAUUUUCAUUCCUAAUUGAGUGACAGCCAUCUUUUAAGGUGUUGGGCAUGGA: 0.446
